Experimental data gathered from unrelated publications.
Cell line: human cells

SMILES | test | conditions | endpoint | value
CC(C)C[C@H](NC(=O)OCc1ccccc1)C(=O)N[C@H](C=O)C[C@@H]1CCNC1=O | cytotoxicity | 48 (unit not given) | CC50 | > 50 µM
COc1cc(/C=C/c2ccc3c(c2)[C@@H](c2cc(OC)cc(OC)c2)[C@H](c2ccc(O)cc2)O3)cc(OC)c1 |  | 48 (unit not given) | CC50 | 79.3 µM
COc1ccc(NN2CCCC3(C2)Nc2cccnc2N=C3NC2CCCC2)c(C)c1 (stereo not shown) |  | 72 (unit not given) | CC50 | > 100 µM
Nc1nc(Nc2ccc(Cl)cc2)nn1S(=O)(=O)c1ccc2ccccc2c1 |  |  | CC50 | 8.7 µM
Oc1ccc([C@@H]2Oc3ccc(/C=C/c4cc(O)cc(O)c4)cc3[C@H]2c2cc(O)cc(O)c2)cc1 |  | 1 (unit not given) | CC50 | 502 µM
O=C(Oc1cncc(Cl)c1)c1cccc2[nH]ccc12 | cytotoxicity | 48 (unit not given) | CC50 | 81 µM
Nc1nc(Nc2ccc(Cl)c(Cl)c2)nn1S(=O)(=O)c1ccc2ccccc2c1 |  |  | CC50 | 17 µM
COc1cc(OC)cc([C@@H]2c3cc(/C=C/c4cc(O)cc(O)c4)ccc3O[C@H]2c2ccc(O)cc2)c1 |  | 48 (unit not given) | CC50 | 15.8 µM
Cc1ccc(NS(=O)(=O)c2c(C(=O)N3CCCCCC3)c(C)n(C)c2C)c(Cl)c1 |  | 33.33 µM, 60 h | viability | 98.2%
COc1ccc(-c2cnc3c(C#Cc4cccnc4)snc3c2)cc1OC |  | 48 (unit not given) | CC50 | > 10 µM

Excerpt of the above:
SMILES | test | conditions | endpoint | value
CC(C)C[C@H](NC(=O)OCc1ccccc1)C(=O)N[C@H](C=O)C[C@@H]1CCNC1=O | cytotoxicity | 48 (unit not given) | CC50 | > 50 µM
